# Assay results from different studies.
# Technique: steady-state kinetics
# B1: SLCO1B1 (Homo sapiens, UniProt Q9Y6L6); chain MDQNQHLNKTAEAQPSENKKTRYCNGLKMFLAALSLSFIAKTLGAIIMKSSIIHIERRFEISSSLVGFIDGSFEIGNLLVIVFVSYFGSKLHRPKLIGIGCFIMGIGGVLTALPHFFMGYYRYSKETNINSSENSTSTLSTCLINQILSLNRASPEIVGKGCLKESGSYMWIYVFMGNMLRGIGETPIVPLGLSYIDDFAKEGHSSLYLGILNAIAMIGPIIGFTLGSLFSKMYVDIGYVDLSTIRITPTDSRWVGAWWLNFLVSGLFSIISSIPFFFLPQTPNKPQKERKASLSLHVLETNDEKDQTANLTNQGKNITKNVTGFFQSFKSILTNPLYVMFVLLTLLQVSSYIGAFTYVFKYVEQQYGQPSSKANILLGVITIPIFASGMFLGGYIIKKFKLNTVGIAKFSCFTAVMSLSFYLLYFFILCENKSVAGLTMTYDGNNPVTSHRDVPLSYCNSDCNCDESQWEPVCGNNGITYISPCLAGCKSSSGNKKPIVFYNCSCLEVTGLQNRNYSAHLGECPRDDACTRKFYFFVAIQVLNLFFSALGGTSHVMLIVKIVQPELKSLALGFHSMVIRALGGILAPIYFGALIDTTCIKWSTNNCGTRGSCRTYNSTSFSRVYLGLSSMLRVSSLVLYIILIYAMKKKYQEKDINASENGSVMDEANLESLNKNKHFVPSAGADSETHC
# B2: enzyme (Leishmania major, UniProt E9AE57); chain MSLCDQCEIGCRRVGIKDIEDASAVNADFHFSAIFQPTDPHHHQTEFAKVEGSEKYVEEVEVFGRQALKVNPEALTILAHRAFSDVHHFFRKDHLEGWRRAIEDPEASDNDRYVATTLLKNACIAAGRVLPSCQDTGTAIVLGKRGELCWTGGEDEKYLSKGIWNAYRYHNLRYSQTAALDMFKECNTGDNLPAQLDLLAVPGSDYEFLFIAKGGGSANKAYLYQETKALLNPKSLRAFIEEKLKTLGTAACPPYHIALVIGGTSAEMTMKTVKLASCRYYDSLPTTGDKYGRAFRDPEWEKIVMEVAQKSGIGAQFGGKYFAHQARVIRLPRHGASCPVGLAVSCSADRQILAHINKSGIYIEQLEQNPAQYLPDIPEVHLSTTSVKVDLKRPIDKVRQQLSQYPVGTRVMLNGTLIVARDIAHAKIKEMMDNGEPLPEYMKTSPIYYAGPAKTPEGYASGSFGPTTAGRMDSYVDLFQSHGGSYITLAKGNRSKQVTDACKKHGGFYLGSIGGPAAILAKDSIKQVTCLAFPELGMEAVWKIEVEDFPAFIVVDDKGNDMYSKTLA
# B3: aromatic amino acid decarboxylase (Bacillus atrophaeus, UniProt I0DFJ0); chain MSENLQLSAEEMRQLGYQAVDLIIDHMNHLKSKPVSETIDSDILRNKLTESIPENGSDPKELLHFLNRNVFNQITHVDHPHFLAFVPGPNNYVGVVADFLASGFNVFPTAWIAGAGAEQIELTTINWLKSMLGFPDSAEGLFVSGGSMANLTALTVARQAKLNNDIENAVVYFSDQTHFSVDRALKVLGFKHHQICRIETDEHLRISVSALKKQIKEDRTKGKKPFCVIANAGTTNCGAVDSLNELADLCNDEDVWLHADGSYGAPAILSEKGSAMLQGIHRADSLTLDPHKWLFQPYDVGCVLIRNSQYLSKTFRMMPEYIKDSETNVEGEINFGECGIELSRRFRALKVWLSFKVFGVAAFRQAIDHGIMLAEQVEAFLGKAKDWEVVTPAQLGIVTFRYIPSELASTDTINEINKKLVKEITHRGFAMLSTTELKEKVVIRLCSINPRTTTEEMLQIMMKIKALAEEVSISYPCVAE
# B4: CMBL (Homo sapiens, UniProt Q96DG6); chain MANEAYPCPCDIGHRLEYGGLGREVQVEHIKAYVTKSPVDAGKAVIVIQDIFGWQLPNTRYIADMISGNGYTTIVPDFFVGQEPWDPSGDWSIFPEWLKTRNAQKIDREISAILKYLKQQCHAQKIGIVGFCWGGTAVHHLMMKYSEFRAGVSVYGIVKDSEDIYNLKNPTLFIFAENDVVIPLKDVSLLTQKLKEHCKVEYQIKTFSGQTHGFVHRKREDCSPADKPYIDEARRNLIEWLNKYM
# B5: protein (UniProt A0A4Y6I0S2); chain MTFEEKPMKFDGLDIEGVAFAPSVAALGSAKPLVLGGAGDRGLEINGNYIKFTAIGIYIEDGIIPHLSSKLSGKTVLELCEKDLLFEEVIYAPFEKLVRVVFIAPLTGIQYSEKVLERISVQALYTDIKEEHKQQFLEIFKGESFPPQSSAILSFSKEGLKVAFSKGDDVPAKAVGTIENARFADAVLGTIIWRDGVSPAAKVSLAERVSKYLQLGPSDGLASVPQSK
# B6: PP2A (Sulfolobus acidocaldarius, UniProt Q4JAD1); chain MNIEETYELLEKSKDIFRQQGPFIGEYKEDKVVFVGDTHGAINVTEYVFRKFYDNVDLIVFLGDYVDREPQTGVENLSLILKKLIESDENKGKTKIVVLRGNHESPLTNFHYGFFEELKIKTEDAENAYEKFRDLFSYMPYSVLVNGYLCMHGGLPATLEGDRLGITTVEDIAKLKYPDINPDDPVGLQILWNDPRDGLLDIDFLPSIRGEGIYYFGERVTNEFLSYNNFKGIIRGHEAVDGFRTNMNGKVITVFSSVYHGQRSGILYHDYNNNKFVRIYIKMVNDQLIEEIV
# B7: bga E532Q (Niallia circulans, UniProt E5RWQ2); chain GNSVSYDGERRVNFNENWRFQRETNGSIAGAQNPGFDDSSWRKLNLPHDWSIELDFNKNSLATHEGGYLDGGIGWYRKTFTIPESMKGKRISLDFDGVYMNSTTYLNGEVLGTYPFGYNAFSYDISDKLYKDGRANVLVVKVNNTQPSSRWYSGSGIYRNVYLTVTDPIHVARYGTFVTTPNLEKSIKEDRADVNIKTKISNDAAEAKQVKIKSTIYDGAGNTVQTVETEEKTAAAGTVTPFEQNTVIKQPKLWSIDKPYRYNLVTEVIVGGQTVDTYETKFGVRYFKFDENEGFSLNGEYMKLHGVSMHHDLGALGAATNARGVERQMQIMKDMGVNAIRVTHNPASPELLEAANKLGLFIIEEAFDSWAQSKKPYDYGRFFNAWAEHDIKEMVDRGKNEPAIIMWSIGNEIYDTTNAAGVETARNLVGWVKEIDTTRPTTIGEDKTRGDKVNVTPINSYIKEIFNIVDVVGLNYSENNYDGYHKQNPSWKLYGSQTSSATRSRGVYTHPYQYNQSTKYADLQQSSYDNDYVGWGRTAEDAWKYDRDLKHIAGQFIWTGFDYIGEPTPYYNSYPAKSSYFGAVDTAGFPKDIFYYYQSQWKKEPMVHLLPHWNWKEGEKVRVLAYTNASKVELVLNGESLGEKNYDNKQTSWGAPYKETKDGKTYLEWAVPFKPGKLEAVAKDENGKVIARDQVVTAGEPASVRLTADRKVVKADGTDLSFITADIVDSKGIVVPDADHLITFNVTGQGELAGVDNGNASSVERYKDNKRKAFSGKALAIVQSSKLSGKITVHASVAGLSSDSTSVFTVTP
# B8: protein (Danio rerio, UniProt A0EXC5); chain MTESELYSVHKGVFVPTHLHPAESLKYYEDFIFRPDDILIVTYPKSGTIWMQEIVPLVVSEGDLTLVLTVPNWDRVPWLEEHRAILLSLEQRASPRIFATHFHHQMMNPSYFKIEPRVLYVMRNPKDVFISSFHYYGMASFLVNPGTQDEFMEKFLNGNIMFGSWFDHVKGWLNAAEQEHILYISYEEMINDLRASVEKIATFLGKSLSSEVVEKIADHCVFKNMKQNKMSNLSLVPEEFMDQKKSEFLRKGIAGDWKNHFSAAQEERFNAVYDDKMKDVKFKFPWD
# B9: enzyme D382A (Arabidopsis thaliana, UniProt O82390); chain MNARALLCSSNIHSLYTSNRPPEKTSSSRSLRNLKPSPKSLRVWIYPRNRSSVFRVLVRSSDKSESSNSYYVEGDKVSGNNDVVSDSPSSIVLPWWEEFPKRWVIVLLCFSAFLLCNMDRVNMSIAILPMSAEYGWNPATVGLIQSSFFWGYLLTQIAGGIWADTVGGKRVLGFGVIWWSIATILTPVAAKLGLPYLLVVRAFMGVGEGVAMPAMNNILSKWVPVQERSRSLALVYSGMYLGSVTGLAFSPFLIHQFGWPSVFYSFGSLGTVWLTLWLTKAESSPLEDPTLLPEERKLIADNCASKEPVKSIPWRLILSKPPVWALISCHFCHNWGTFILLTWMPTYYHQVLKFNLMESGLLSVFPWMTMAISANAGGWIAATLVSRGFSVTNVRKIMQTIGFLGPAFFLTQLKHIDSPTMAVLCMACSQGTDAFSQSGLYSNHQDIAPRYSGVLLGLSNTAGVLAGVLGTAATGHILQHGSWDDVFTISVGLYLVGTVIWNLFSTGEKIID
# B10: protein (Rheum palmatum, UniProt A0A7L9A2S6); chain MKKTELVFLPAPAPGHLVSTVEFSKRLIARDARLTVTILVISSPFSRGAQTNPSPGIRYVTLPQVDVPQHLMKDSIEHTISVYIASHAPHVRDAVAALQTESTVHVAGLFLDMFCTPMIDVANELGLPSYVFFCSSAGFLGLLLHLPVHSQPRFDETGLDVLIPSFQNPVPTRVLPRFGFNELGYKSFMDHAKRFGETKGIIINTYAELEPYALKSLLDAYDTAPVYAVGPVLDLRSQVHMPCDAAERARIMGWLDKQPDSSVVFLCFGSGGSFSEHQIREISKGLSQSGQRFLWSVRKPPTGGLVKPTEYTETELRSVLGDEFWSLLDEGERGVVCGWAPQVEVLGHKSVGAFVSHCGWNSTLESLWFGKPMVTWPLYAEQQMNAFELVKELGIAVELTLDYRLHSSEVVEAREVERAVRRVMDENNPVRYKVKEMAEVCRATLVEGGSSFVCVDRLISGFLGEIN
# UniProt O60656, sequence (whole entry, looked up): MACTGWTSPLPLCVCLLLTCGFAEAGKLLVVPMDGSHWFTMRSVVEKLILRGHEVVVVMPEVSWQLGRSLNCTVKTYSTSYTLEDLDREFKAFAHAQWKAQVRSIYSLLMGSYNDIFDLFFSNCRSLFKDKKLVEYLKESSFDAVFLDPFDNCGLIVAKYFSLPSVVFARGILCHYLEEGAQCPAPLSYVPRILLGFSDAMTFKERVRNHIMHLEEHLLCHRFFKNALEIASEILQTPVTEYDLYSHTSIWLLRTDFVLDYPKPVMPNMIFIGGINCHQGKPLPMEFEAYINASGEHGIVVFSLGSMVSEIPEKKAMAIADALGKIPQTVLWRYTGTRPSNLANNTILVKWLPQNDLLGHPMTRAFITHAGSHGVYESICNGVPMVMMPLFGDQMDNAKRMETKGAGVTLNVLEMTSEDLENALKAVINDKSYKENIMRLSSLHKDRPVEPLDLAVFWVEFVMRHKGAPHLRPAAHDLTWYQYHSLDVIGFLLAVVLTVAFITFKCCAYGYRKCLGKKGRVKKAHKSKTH
# UniProt Q9WXT2, sequence (whole entry, looked up): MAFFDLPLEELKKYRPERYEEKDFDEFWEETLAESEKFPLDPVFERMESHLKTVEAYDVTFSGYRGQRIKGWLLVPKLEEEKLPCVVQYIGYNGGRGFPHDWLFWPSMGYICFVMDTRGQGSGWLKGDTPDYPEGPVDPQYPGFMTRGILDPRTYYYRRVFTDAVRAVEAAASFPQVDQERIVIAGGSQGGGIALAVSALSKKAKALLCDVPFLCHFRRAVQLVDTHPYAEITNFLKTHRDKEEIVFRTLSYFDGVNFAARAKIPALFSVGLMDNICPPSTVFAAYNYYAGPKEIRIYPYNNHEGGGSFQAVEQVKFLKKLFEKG
# UniProt P31513, sequence (whole entry, looked up): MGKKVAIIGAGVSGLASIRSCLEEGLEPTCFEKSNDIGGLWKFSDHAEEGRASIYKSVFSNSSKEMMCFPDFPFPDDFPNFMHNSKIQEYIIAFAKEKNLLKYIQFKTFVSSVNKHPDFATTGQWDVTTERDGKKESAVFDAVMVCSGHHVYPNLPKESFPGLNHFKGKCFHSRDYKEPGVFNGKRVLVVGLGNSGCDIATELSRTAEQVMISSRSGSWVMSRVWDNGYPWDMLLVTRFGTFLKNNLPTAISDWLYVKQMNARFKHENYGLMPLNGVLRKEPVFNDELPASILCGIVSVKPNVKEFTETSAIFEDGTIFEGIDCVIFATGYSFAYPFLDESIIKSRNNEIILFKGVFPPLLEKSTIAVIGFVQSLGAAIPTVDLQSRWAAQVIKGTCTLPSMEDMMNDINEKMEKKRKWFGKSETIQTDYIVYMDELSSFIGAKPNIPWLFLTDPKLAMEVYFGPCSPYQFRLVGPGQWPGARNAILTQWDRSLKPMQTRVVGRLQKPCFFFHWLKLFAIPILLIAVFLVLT
Substance,substrate,system,setting,Vmax
B1 (SLCO1B1),COc1cc2c(cc1OC)[C@@H]1Cc3ccc(OC)c(OC)c3CN1CC2,,"pH 7.4, 37 °C, not purified",0.000209 µmol/min/mg
B2 (enzyme),O=C(O)C[C@H](O)C(=O)O,,,485 µmol/min/mg
B3,N[C@@H](Cc1c[nH]c2c(Cl)cccc12)C(=O)O,,"pH 7, 37 °C, not purified, with: PLP 40 µM",0.3 µmol/min/mg
"FMO3 (Homo sapiens, UniProt P31513)",CN1CCC[C@H]1c1cccnc1,HEK293 microsomes,"37 °C, not purified, with: NADPH regenerating system",1.12e-05 µmol/min/mg
"CYP2C19 (Homo sapiens, UniProt P33261)",CN1C(=O)CC[C@H]1c1cccnc1,microsomes,"pH 6.7, cotinine to COX, not purified",1.5e-05 µmol/min/mg
B4 (CMBL),Cc1oc(=O)oc1COC(=O)[C@@H]1N2C(=O)[C@@H](NC(=O)[C@H](N)c3ccccc3)[C@H]2SC1(C)C,lysate,"pH 7.4, 37 °C, not purified",0.004 µmol/min/mg
B5 (protein),O=C(/C=C/c1ccc(O)cc1)c1c(O)cc(O)cc1O,,,205 µmol/min/mg
B6 (PP2A),O=[N+]([O-])c1ccc(OP(=O)(O)O)cc1,,"pH 6.5, 70 °C, cooperative, with: Mn2+ 5 mM",4.3 µmol/min/mg
B7 (bga E532Q),O=[N+]([O-])c1ccccc1O[C@@H]1O[C@H](CO)[C@H](O)[C@H](O)[C@H]1O,,"pH 6, 40 °C, low-substrate phase, biphasic",0.2 µmol/min/mg
"speG (Vibrio cholerae, UniProt Q9KL03)",NCCCCNCCCN,,"pH 9, 37 °C",76.2 µmol/min/mg
B8 (protein),C[C@H](CCCC(CO)CO)[C@H]1CC[C@H]2[C@@H]3[C@H](O)C[C@@H]4C[C@H](O)CC[C@]4(C)[C@H]3C[C@H](O)[C@]12C,,"pH 7, 28 °C, substrate inhibition, with: PAPS 14 µM",0.0228 µmol/min/mg
"enzyme (Thermotoga maritima, UniProt Q9WZ18)",Cc1cc2nc3c(=O)[nH]c(=O)nc-3n(C[C@H](O)[C@H](O)[C@H](O)COP(=O)(O)OP(=O)(O)OC[C@H]3O[C@@H](n4cnc5c(N)ncnc54)[C@H](O)[C@@H]3O)c2cc1C,,"pH 7, 80 °C, apparent, cofactor varied",134 µmol/min/mg
"UGT1A9 (Homo sapiens, UniProt O60656)",Cc1ccc2oc(-c3ccc4c(c3)OCO4)c(O)c(=O)c2c1,,"pH 7.4, 37 °C",0.006 µmol/min/mg
B9 (enzyme D382A),O=P(O)(O)O,,"pH 6.5, 25 °C, apparent, not purified",0.0026 µmol/min/mg
"axeA (Thermotoga maritima, UniProt Q9WXT2)",CC(=O)Oc1ccc([N+](=O)[O-])cc1,,"pH 6.5, 50 °C, temperature uncertain, apparent",114 µmol/min/mg
B10 (protein),O=c1c(O)c(-c2ccc(O)cc2)oc2cc(O)cc(O)c12,,"pH 7.5, 35 °C, apparent, with: UDP-glucose",6.42e+07 µM/min/mg

# Repeated from above:
Substance,substrate,system,setting,Vmax
"FMO3 (Homo sapiens, UniProt P31513)",CN1CCC[C@H]1c1cccnc1,HEK293 microsomes,"37 °C, not purified, with: NADPH regenerating system",1.12e-05 µmol/min/mg
"CYP2C19 (Homo sapiens, UniProt P33261)",CN1C(=O)CC[C@H]1c1cccnc1,microsomes,"pH 6.7, cotinine to COX, not purified",1.5e-05 µmol/min/mg
